# Measured values gathered from unrelated publications.
# Compare with care: the assays were run in different laboratories. Numbers after ± are the reported error.
# AVPR1A: Vasopressin V1a receptor (AVPR1A, Homo sapiens, UniProt P37288)
# UniProt P37288, sequence (whole entry, looked up): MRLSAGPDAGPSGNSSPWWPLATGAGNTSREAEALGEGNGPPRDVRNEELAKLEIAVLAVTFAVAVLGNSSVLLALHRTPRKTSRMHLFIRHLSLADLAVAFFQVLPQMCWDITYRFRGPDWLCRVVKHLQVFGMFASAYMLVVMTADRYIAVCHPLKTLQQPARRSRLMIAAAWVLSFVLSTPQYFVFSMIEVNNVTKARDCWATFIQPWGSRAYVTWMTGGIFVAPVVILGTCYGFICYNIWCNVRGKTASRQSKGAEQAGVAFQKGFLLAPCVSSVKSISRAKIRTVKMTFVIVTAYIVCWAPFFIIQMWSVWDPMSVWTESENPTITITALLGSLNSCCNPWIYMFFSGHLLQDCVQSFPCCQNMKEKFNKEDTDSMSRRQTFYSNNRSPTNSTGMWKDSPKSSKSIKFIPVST
# DPP4: Dipeptidyl peptidase 4 (DPP4, Sus scrofa, UniProt P22411)
# UniProt P22411, sequence (whole entry, looked up): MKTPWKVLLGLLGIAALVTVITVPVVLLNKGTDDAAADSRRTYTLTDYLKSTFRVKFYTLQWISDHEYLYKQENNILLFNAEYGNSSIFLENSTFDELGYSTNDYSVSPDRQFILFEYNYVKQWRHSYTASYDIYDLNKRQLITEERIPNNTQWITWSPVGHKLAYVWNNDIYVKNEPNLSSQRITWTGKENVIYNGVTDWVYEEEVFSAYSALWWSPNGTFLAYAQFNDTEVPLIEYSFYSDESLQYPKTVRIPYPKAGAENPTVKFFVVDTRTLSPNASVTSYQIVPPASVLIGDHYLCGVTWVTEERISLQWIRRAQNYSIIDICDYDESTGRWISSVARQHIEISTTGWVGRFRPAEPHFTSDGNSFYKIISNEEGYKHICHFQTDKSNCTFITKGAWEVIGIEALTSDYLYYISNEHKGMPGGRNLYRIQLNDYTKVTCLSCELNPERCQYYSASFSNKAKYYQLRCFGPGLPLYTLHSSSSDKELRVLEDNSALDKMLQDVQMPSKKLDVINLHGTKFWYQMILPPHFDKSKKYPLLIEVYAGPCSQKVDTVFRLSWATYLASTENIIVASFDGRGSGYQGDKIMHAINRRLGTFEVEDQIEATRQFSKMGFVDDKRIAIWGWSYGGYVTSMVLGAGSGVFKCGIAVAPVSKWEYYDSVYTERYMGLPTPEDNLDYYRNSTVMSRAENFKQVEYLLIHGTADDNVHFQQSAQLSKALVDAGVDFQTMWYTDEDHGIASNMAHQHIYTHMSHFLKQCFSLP
# TDP1: Tyrosyl-DNA phosphodiesterase 1 (TDP1, Homo sapiens, UniProt Q9NUW8)
# UniProt Q9NUW8, sequence (whole entry, looked up): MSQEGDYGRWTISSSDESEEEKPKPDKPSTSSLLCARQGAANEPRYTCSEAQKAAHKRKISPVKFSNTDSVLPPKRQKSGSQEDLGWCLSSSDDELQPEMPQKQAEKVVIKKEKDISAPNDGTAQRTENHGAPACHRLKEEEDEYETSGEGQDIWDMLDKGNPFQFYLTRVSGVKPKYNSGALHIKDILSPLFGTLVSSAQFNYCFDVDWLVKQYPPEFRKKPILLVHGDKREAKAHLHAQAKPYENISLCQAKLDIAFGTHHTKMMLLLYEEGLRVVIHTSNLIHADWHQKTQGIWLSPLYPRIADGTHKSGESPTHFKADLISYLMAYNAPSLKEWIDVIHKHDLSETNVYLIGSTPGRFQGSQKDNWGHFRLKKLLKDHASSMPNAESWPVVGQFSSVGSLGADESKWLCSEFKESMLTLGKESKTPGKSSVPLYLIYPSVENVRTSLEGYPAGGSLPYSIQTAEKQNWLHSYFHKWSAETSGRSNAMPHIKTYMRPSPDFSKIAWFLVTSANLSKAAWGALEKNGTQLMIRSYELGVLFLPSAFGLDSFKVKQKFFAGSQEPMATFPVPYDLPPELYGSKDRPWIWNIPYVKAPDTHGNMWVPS
# Seed linoleate 13S-lipoxygenase-1: Seed linoleate 13S-lipoxygenase-1 (Glycine max, UniProt P08170)
# UniProt P08170, sequence (whole entry, looked up): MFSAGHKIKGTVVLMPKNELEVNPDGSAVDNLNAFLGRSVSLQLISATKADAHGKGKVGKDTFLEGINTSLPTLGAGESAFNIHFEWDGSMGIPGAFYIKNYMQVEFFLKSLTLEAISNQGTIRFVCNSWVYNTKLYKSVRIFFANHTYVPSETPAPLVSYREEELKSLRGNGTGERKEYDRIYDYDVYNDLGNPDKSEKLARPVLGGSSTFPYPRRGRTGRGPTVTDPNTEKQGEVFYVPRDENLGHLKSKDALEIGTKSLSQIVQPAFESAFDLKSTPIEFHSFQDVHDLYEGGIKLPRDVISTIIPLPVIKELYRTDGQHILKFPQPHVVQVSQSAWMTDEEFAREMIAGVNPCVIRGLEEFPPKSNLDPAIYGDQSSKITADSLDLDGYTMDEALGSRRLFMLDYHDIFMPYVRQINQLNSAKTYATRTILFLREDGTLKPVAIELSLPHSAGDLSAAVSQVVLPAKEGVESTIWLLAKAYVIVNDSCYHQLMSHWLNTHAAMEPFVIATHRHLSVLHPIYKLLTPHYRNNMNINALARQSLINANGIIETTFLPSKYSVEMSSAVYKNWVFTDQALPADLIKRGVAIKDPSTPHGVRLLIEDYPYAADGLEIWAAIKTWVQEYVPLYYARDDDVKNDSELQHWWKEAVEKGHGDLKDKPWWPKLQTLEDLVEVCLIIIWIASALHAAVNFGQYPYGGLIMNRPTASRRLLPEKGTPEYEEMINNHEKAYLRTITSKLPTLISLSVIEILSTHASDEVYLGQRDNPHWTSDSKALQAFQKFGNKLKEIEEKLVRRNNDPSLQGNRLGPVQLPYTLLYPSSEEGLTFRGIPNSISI
# Uncharacterized protein: Uncharacterized protein (Trypanosoma brucei brucei, UniProt Q386Q8)
# MAPK14: Mitogen-activated protein kinase 14 (MAPK14, Homo sapiens, UniProt Q16539)
# UniProt Q16539, sequence (whole entry, looked up): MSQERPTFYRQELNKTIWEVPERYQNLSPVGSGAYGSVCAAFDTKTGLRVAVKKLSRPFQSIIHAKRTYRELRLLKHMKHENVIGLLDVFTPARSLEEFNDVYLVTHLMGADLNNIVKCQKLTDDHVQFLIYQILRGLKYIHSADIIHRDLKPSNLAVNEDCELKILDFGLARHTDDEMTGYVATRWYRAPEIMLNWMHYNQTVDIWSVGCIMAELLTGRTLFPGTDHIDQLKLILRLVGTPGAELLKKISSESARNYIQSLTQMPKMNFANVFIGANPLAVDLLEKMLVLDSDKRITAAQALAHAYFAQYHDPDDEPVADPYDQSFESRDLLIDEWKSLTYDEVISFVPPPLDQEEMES
# ABCC1: Multidrug resistance-associated protein 1 (ABCC1, Homo sapiens, UniProt P33527)
# UniProt P33527, sequence (whole entry, looked up): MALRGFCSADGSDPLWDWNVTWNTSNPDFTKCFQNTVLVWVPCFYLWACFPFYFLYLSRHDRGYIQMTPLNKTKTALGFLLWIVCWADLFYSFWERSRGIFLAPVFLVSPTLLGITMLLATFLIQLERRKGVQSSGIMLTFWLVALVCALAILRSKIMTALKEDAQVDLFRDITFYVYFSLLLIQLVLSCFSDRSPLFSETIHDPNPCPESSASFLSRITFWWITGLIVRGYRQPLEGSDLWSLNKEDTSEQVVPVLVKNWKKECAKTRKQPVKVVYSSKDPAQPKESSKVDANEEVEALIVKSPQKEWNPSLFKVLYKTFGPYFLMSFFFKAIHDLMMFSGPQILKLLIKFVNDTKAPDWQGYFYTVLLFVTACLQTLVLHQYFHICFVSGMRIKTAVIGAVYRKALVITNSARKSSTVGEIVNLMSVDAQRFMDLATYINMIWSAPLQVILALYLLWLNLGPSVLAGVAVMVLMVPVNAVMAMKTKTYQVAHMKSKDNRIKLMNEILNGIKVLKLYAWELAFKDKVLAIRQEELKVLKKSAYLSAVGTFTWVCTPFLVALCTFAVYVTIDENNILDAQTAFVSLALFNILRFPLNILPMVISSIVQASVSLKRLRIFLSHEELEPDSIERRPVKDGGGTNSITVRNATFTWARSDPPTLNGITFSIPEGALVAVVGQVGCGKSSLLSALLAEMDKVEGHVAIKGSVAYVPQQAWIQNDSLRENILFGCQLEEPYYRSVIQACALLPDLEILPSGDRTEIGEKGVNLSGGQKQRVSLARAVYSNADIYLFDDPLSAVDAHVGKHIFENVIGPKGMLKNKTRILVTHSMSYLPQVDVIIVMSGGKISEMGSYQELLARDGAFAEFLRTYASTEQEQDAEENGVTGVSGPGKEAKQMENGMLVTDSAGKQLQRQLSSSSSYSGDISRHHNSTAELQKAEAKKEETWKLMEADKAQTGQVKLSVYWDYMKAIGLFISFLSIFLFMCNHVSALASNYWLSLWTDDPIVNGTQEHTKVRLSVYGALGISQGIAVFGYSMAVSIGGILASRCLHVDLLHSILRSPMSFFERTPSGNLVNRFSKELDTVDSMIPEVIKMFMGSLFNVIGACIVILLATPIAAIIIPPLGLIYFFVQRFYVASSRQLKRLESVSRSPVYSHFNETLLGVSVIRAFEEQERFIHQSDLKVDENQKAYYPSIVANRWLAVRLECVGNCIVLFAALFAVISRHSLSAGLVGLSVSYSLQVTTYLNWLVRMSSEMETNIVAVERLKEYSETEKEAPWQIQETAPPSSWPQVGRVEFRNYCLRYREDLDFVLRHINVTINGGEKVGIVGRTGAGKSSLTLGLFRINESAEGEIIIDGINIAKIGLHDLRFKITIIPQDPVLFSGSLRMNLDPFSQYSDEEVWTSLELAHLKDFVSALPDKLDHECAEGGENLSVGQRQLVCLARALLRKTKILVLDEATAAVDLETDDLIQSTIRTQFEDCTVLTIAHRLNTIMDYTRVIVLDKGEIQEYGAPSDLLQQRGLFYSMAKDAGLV
# UniProt O95749, sequence (whole entry, looked up): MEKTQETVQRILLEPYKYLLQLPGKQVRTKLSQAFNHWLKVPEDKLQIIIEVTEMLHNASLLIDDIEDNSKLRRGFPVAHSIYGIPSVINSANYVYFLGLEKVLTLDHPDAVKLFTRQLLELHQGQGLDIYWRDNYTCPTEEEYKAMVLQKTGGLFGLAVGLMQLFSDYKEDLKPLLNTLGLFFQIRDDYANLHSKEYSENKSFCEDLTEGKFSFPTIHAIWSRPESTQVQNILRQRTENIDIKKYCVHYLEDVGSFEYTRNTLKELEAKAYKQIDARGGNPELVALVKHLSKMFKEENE
# UniProt P32119, sequence (whole entry, looked up): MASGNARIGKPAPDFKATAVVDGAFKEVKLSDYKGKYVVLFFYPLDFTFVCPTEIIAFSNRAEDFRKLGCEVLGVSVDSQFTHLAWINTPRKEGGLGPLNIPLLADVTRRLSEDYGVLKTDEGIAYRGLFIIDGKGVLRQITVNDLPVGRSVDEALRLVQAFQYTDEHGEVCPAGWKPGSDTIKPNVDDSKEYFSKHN
SMILES,target,assay,test system,setting,how to read,inhibition
COc1c2c(cc3oc(=O)cc(-c4ccc(Cl)cc4)c13)C(=O)c1cc(C)cc(O)c1C2=O,mushroom tyrosinase,enzyme activity,,"50 µg/mL, together with: L-DOPA",,73.6 ± 0.45%
O=C1c2ccccc2C(=O)c2c1ccc1c2C(C(=O)Nc2ccc(Cl)cc2)C(=O)C1c1ccccc1 (centres unmarked),mushroom tyrosinase,"enzyme activity, inhibitor, spectrophotometry",,"100 µg/mL, together with: L-DOPA substrate",,45.6 ± 0.26%
COc1cc(OC)c2c(c1)C(=O)c1cc3oc(=O)cc(-c4ccc(Cl)cc4)c3c(O)c1C2=O,mushroom tyrosinase,enzyme activity,,"50 µg/mL, together with: L-DOPA",,36.14 ± 0.32%
Cn1c(=O)c2cc(C(=O)NCCCN3CCCCCC3)sc2c2ccccc21,"GGPS1 (Homo sapiens, UniProt O95749)",enzyme activity,,up to 200 µM,,no inhibition
Cc1cc(O)c2c(c1)C(=O)c1cc3oc(=O)cc(-c4ccc(O)cc4)c3c(O)c1C2=O,mushroom tyrosinase,enzyme activity,,"25 µg/mL, together with: L-DOPA",,25.3 ± 0.21%
Cc1cc2c(c(O)c1O)C(=O)c1c(O)cc(O)cc1C2=O,AVPR1A,"intracellular calcium, antagonist",CHO,"12.5 µM, together with: vasopressin 10 nM",,> 50%
COc1cc(O)c(C(=O)/C=C/c2ccccc2)c(O)c1OC,DPP4,"enzyme activity, inhibitor, absorbance",,50 µg/mL,,28.9%
"C=C1C(=O)C23CCC4C(C)(C)CCCC4(C)C2C(O)CC1C3 (single isomer, unassigned)","Peroxiredoxin-2 (PRDX2, Homo sapiens, UniProt P32119)","peroxidase activity, inhibitor, Amplex Red",,concentration not given,,inhibited
Cc1ccc(NC(=O)C2C(=O)C(c3ccccc3)c3ccc4c(c32)C(=O)c2ccccc2C4=O)cc1 (centres unmarked),mushroom tyrosinase,"enzyme activity, inhibitor, spectrophotometry",,"100 µg/mL, together with: L-DOPA substrate",,86.2 ± 1.52%
Cc1cc(NC(=O)[C@H](O)c2cc(F)cc(F)c2)ccc1-c1cnc(N)c(C(=O)NC(C)C)c1,"RIOK1 (Homo sapiens, UniProt Q9BRS2)","cell-free assay, competition with immobilised ligand",,1 µM,,> 50%
CC(=O)Nc1cc(COc2c(Cl)cc(CC(N)C(=O)O)cc2Cl)c2oc(-c3ccccc3)nc2c1 (centres unmarked),"SLC43A2 (Homo sapiens, UniProt Q8N370)",leucine uptake,Xenopus oocytes,"1 and 10 µM, 30 min, together with: L-[14C]leucine 50 µM",,no inhibition
N#Cc1ccc(-c2ccc(C=NOCc3ccc4nc(-c5ccccc5)c(Nc5ccc(C(=O)O)cc5)n4c3)cc2)nc1,TDP1,"enzyme activity, inhibitor",,100 µM,,94%
CCn1c(SC(C)C(=O)Nc2ccc(C)cc2C)nnc1C1CCN(C(=O)Nc2ccccc2)CC1 (centres unmarked),Seed linoleate 13S-lipoxygenase-1,"enzyme activity, inhibitor",,250 µM,,85.6%
O=C(CC1(O)C(=O)Nc2cc(Cl)cc(Cl)c21)c1ccc2c(c1)OCO2 (centres unmarked),Uncharacterized protein,"enzyme activity, inhibitor, coupled colorimetric",Trypanosoma brucei,100 µM,,25%
CC1=C2C(=O)C3CC[C@@H](C)C2(CC1)C3(C)C (some centres unmarked),DPP4,"enzyme activity, inhibitor, absorbance",,50 µg/mL,,23.9%
O=C1c2ccccc2C(=O)c2c1ccc1c2C(C(=O)Nc2ccc(Br)cc2)C(=O)C1c1ccccc1 (centres unmarked),mushroom tyrosinase,"enzyme activity, inhibitor, spectrophotometry",,"100 µg/mL, together with: L-DOPA substrate",,75 ± 1.36%
O=C1NCCN=C1CC(=O)c1ccccc1,MAPK14,primary fragment screen,,"0.25 mM, together with: ATP 10 µM",,79.2%
COc1ccc(NC(=O)C2C(=O)C(c3ccccc3)c3ccc4c(c32)C(=O)c2ccccc2C4=O)cc1 (centres unmarked),mushroom tyrosinase,"enzyme activity, inhibitor, spectrophotometry",,"100 µg/mL, together with: L-DOPA substrate",,51.6 ± 1.06%
COc1cc(C(=O)NC2CCC(N3CCN(CC4CCC5(CCCC5)C4)CC3)CC2)c(F)cc1Nc1ncc2c(n1)N(C1CCCC1(F)F)CC(F)(F)C(=O)N2C (centres unmarked),"EPHA4 (Homo sapiens, UniProt P54764)","cell-free assay, TR-FRET",,10 µM,,0.45%
CCC(=O)N(C)c1ccc(Cl)c(Cl)c1,"CCKAR (Homo sapiens, UniProt P32238)","ligand displacement, radioligand",,10 µM,,10.3%
COc1cc(/C=C/c2cc(C)n[nH]2)ccc1O,"TXNRD1 (Homo sapiens, UniProt Q16881)",enzyme activity,MCF7,"25 µM, 48 h",,37%
Nc1n[nH]c(Nc2ccc(Cl)cc2)n1,MAPK14,primary fragment screen,,"0.25 mM, together with: ATP 10 µM",,-0.8%
Cc1c2c(cc3oc(=O)cc(-c4ccc(Cl)cc4)c13)C(=O)c1cccc(O)c1C2=O,mushroom tyrosinase,enzyme activity,,"50 µg/mL, together with: L-DOPA",,51.81 ± 0.19%
CC(C)C[C@H](NC(=O)[C@H](CCC(N)=O)NC(=O)[C@H](CCCNC(=N)N)NC(=O)[C@H](CCCNC(=N)N)NC(=O)[C@@H](NC(=O)[C@H](CCCNC(=N)N)NC(=O)[C@@H](NC(=O)[C@H](CO)NC(=O)[C@@H](N)CS)[C@@H](C)O)C(C)C)C(N)=O,"NCF1 (Homo sapiens, UniProt P14598)","Nox2 oxidase activity, inhibitor, cytochrome c reduction",COS-Nox2 cell-free system,10 µM,,~85%
O=C(NCc1ccncc1)c1cc(F)cc(F)c1,MAPK14,primary fragment screen,,"0.25 mM, together with: ATP 10 µM",,33.2%
CCN(CC)C(=O)C(C)Sc1nnc(C2CCN(C(=O)Nc3ccccc3)CC2)n1CC (centres unmarked),Seed linoleate 13S-lipoxygenase-1,"enzyme activity, inhibitor",,250 µM,,89.5%
COc1cc(/C=C/C(=O)c2ccc3c(c2)OCO3)ccc1OCc1ccccc1,ABCC1,"calcein efflux, flow cytometry",,10 µM,,no inhibition
c1ccc(CNc2cnccn2)cc1,MAPK14,primary fragment screen,,"0.25 mM, together with: ATP 10 µM",,28.5%
COc1cc(Oc2c(O)c(Br)c(C)c(Br)c2OC)c(C(=O)O)c(C)c1O,"Gag-Pol polyprotein, reverse transcriptase (gag-pol, Human immunodeficiency virus 1, UniProt P03366)","enzyme activity, inhibitor, PicoGreen fluorescence",,10 µM,,3.2 ± 0.1%
Cc1cccc2c1NC(=O)C2(O)CC(=O)c1ccc2c(c1)OCO2 (centres unmarked),Uncharacterized protein,"enzyme activity, inhibitor, coupled colorimetric",Trypanosoma brucei,100 µM,,13%
NCCCC[C@H](NC(=O)[C@@H]1CCCN1C(=O)[C@@H]1CSSCCC(=O)N[C@@H](Cc2ccc(O)cc2)C(=O)N[C@@H](Cc2ccccc2)C(=O)N[C@@H](CCCC(N)=O)C(=O)N[C@@H](CC(N)=O)C(=O)N1)C(=O)NCC(N)=O,AVPR1A,"ligand displacement, radioligand",,10 µM,,> 50%
CCc1ccccc1NC(=O)C(C)Sc1nnc(C2CCN(C(=O)Nc3ccccc3)CC2)n1CC (centres unmarked),Seed linoleate 13S-lipoxygenase-1,"enzyme activity, inhibitor",,250 µM,,87.3%
Cc1cc(O)c2c(c1)C(=O)c1cc3oc(=O)cc(-c4ccccc4)c3c(O)c1C2=O,mushroom tyrosinase,enzyme activity,,"100 µg/mL, together with: L-DOPA",,44.58 ± 0.15%
CCCCC[N+](CCCCC)(CCCCC)CCCCC,"Kcnk2 (Rattus norvegicus, UniProt Q920B6)","ion current, blocker, inside-out patch clamp",Xenopus oocytes,"concentration not given, together with: Rb+ as permeant ion",baseline: K+ as permeant ion,no effect
CC[C@H](C)[C@H](NC(=O)[C@@H]1CSSC[C@H](NC(=O)[C@H](Cc2ccc(O)cc2)NC(=O)CNC(C)=O)C(=O)N[C@@H](CO)C(=O)N[C@@H](CCCNC(=N)N)C(=O)N[C@@H](CO)C(=O)N[C@@H](Cc2ccc(O)cc2)C(=O)N2CCC[C@H]2C(=O)N2CCC[C@H]2C(=O)N[C@@H](C(C)C)C(=O)N1)C(=O)N1CCC[C@H]1C(=O)N[C@@H](CC(=O)O)C(N)=O,"Mannan-binding lectin serine protease 1 (Homo sapiens, UniProt P48740)","enzyme activity, inhibitor",,"15 µM, together with: 10 nM MASP-1",,20%
O=C(c1ccco1)N1CCN(Cc2ccc(Br)cc2)CC1,MAPK14,primary fragment screen,,"0.25 mM, together with: ATP 10 µM",,69.6%
Cc1cc(O)c2c(c1)C(=O)c1cc3oc(=O)cc(-c4ccc(Cl)cc4)c3c(O)c1C2=O,mushroom tyrosinase,enzyme activity,,"50 µg/mL, together with: L-DOPA",,21.69 ± 0.21%
c1ccc2c(c1)Nc1nc3ccccc3nc1N2,"NADPH oxidase 4 (NOX4, Homo sapiens, UniProt Q9NPH5)","enzyme activity, inhibitor, fluorescence",,"100 µM, cell membranes",,40 to 50%
CCn1c(C)c(Sc2ccc(C)cc2)c(=O)n1-c1ccccc1Cl,"JAK2 (Homo sapiens, UniProt O60674)","enzyme activity, inhibitor, ADP detection",,1 µM,,65.9%
COc1c2c(cc3oc(=O)cc(-c4ccccc4)c13)C(=O)c1cc(C)cc(O)c1C2=O,mushroom tyrosinase,enzyme activity,,"25 µg/mL, together with: L-DOPA",,44.58 ± 0.23%
O=C1c2ccccc2C(=O)c2c1ccc1c2C(C(=O)Nc2ccccc2)C(=O)C1c1ccccc1 (centres unmarked),mushroom tyrosinase,"enzyme activity, inhibitor, spectrophotometry",,"25 µg/mL, together with: L-DOPA substrate",,10.6 ± 0.52%
Cc1cc(O)cc2c1C(=O)c1c(cc3oc(=O)cc(-c4ccccc4)c3c1O)C2=O,mushroom tyrosinase,enzyme activity,,"100 µg/mL, together with: L-DOPA",,48.19 ± 0.36%
O=C(O)c1ccc(Nc2c(-c3ccc(CON=Cc4ccc(-c5cnccn5)cc4)cc3)nc3cc(-c4ccccc4)ccn23)cc1,TDP1,enzyme activity,,"100 µM, primary screen",,> 90%
O=c1c2ccccc2ncn1-c1ccccc1F,MAPK14,primary fragment screen,,"0.25 mM, together with: ATP 10 µM",,50%
OC[C@H]1[C@@H](O)[C@@H](O)CN1Cc1ccc(I)cc1,"Alpha-mannosidase (Canavalia ensiformis, UniProt C0HJB3)","enzyme activity, inhibitor, absorbance",,2 mM,,9%
O=C(c1ccco1)N1CCN(Cc2ccc3c(c2)OCO3)CC1,MAPK14,primary fragment screen,,"0.25 mM, together with: ATP 10 µM",,42.1%
CC1CC(=O)c2c3c(n(CCc4ccccc4)c2C1)-c1ccccc1C3=O (centres unmarked),ABCC1,calcein efflux,HEK293 expressing MRP1,2 µM,baseline: verapamil 35 µM as 100%,inhibited

# For quick reference, copied from above:
SMILES,target,assay,test system,setting,how to read,inhibition
CC(=O)Nc1cc(COc2c(Cl)cc(CC(N)C(=O)O)cc2Cl)c2oc(-c3ccccc3)nc2c1 (centres unmarked),"SLC43A2 (Homo sapiens, UniProt Q8N370)",leucine uptake,Xenopus oocytes,"1 and 10 µM, 30 min, together with: L-[14C]leucine 50 µM",,no inhibition
O=C1c2ccccc2C(=O)c2c1ccc1c2C(C(=O)Nc2ccccc2)C(=O)C1c1ccccc1 (centres unmarked),mushroom tyrosinase,"enzyme activity, inhibitor, spectrophotometry",,"25 µg/mL, together with: L-DOPA substrate",,10.6 ± 0.52%
"C=C1C(=O)C23CCC4C(C)(C)CCCC4(C)C2C(O)CC1C3 (single isomer, unassigned)","Peroxiredoxin-2 (PRDX2, Homo sapiens, UniProt P32119)","peroxidase activity, inhibitor, Amplex Red",,concentration not given,,inhibited
Cc1cc(NC(=O)[C@H](O)c2cc(F)cc(F)c2)ccc1-c1cnc(N)c(C(=O)NC(C)C)c1,"RIOK1 (Homo sapiens, UniProt Q9BRS2)","cell-free assay, competition with immobilised ligand",,1 µM,,> 50%
c1ccc(CNc2cnccn2)cc1,MAPK14,primary fragment screen,,"0.25 mM, together with: ATP 10 µM",,28.5%
CCn1c(C)c(Sc2ccc(C)cc2)c(=O)n1-c1ccccc1Cl,"JAK2 (Homo sapiens, UniProt O60674)","enzyme activity, inhibitor, ADP detection",,1 µM,,65.9%
